# Assay results collected from several papers.
# Parts stem from different laboratories: compare values within a part only.
# UniProt Q8N4C8, sequence (whole entry, looked up): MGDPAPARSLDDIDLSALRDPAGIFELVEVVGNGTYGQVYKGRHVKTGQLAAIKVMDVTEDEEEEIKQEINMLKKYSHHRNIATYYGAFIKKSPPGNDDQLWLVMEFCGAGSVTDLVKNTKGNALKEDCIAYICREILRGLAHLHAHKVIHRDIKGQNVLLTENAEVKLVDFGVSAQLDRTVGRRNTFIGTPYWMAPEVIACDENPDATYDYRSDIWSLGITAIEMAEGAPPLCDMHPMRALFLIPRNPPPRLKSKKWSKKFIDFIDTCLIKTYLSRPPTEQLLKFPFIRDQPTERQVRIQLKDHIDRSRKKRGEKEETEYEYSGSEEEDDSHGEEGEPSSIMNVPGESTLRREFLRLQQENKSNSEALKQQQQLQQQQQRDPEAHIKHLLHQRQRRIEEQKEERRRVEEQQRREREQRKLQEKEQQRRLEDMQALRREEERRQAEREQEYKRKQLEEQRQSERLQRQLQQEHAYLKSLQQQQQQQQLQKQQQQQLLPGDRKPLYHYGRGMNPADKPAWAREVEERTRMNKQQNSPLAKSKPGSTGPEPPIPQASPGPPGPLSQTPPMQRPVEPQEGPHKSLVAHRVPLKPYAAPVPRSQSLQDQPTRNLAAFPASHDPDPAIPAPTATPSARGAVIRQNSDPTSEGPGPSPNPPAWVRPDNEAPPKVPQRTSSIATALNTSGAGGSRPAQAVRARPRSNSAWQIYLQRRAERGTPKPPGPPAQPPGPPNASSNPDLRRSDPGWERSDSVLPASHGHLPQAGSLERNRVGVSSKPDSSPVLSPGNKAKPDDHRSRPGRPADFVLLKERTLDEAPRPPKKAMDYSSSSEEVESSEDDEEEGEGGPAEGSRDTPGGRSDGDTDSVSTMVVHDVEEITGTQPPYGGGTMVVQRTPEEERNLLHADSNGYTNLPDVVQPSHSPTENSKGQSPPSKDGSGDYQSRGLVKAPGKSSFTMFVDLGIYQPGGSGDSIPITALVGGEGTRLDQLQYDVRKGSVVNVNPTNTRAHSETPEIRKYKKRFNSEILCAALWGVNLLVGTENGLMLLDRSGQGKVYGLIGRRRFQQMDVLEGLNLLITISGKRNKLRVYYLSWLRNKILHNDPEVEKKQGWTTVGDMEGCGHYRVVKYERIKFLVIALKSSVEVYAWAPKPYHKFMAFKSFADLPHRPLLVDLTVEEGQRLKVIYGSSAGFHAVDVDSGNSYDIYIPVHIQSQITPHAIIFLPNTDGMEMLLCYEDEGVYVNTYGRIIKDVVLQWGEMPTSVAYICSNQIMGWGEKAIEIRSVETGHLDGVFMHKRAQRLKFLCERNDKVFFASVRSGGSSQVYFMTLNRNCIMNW
# UniProt P08173, sequence (whole entry, looked up): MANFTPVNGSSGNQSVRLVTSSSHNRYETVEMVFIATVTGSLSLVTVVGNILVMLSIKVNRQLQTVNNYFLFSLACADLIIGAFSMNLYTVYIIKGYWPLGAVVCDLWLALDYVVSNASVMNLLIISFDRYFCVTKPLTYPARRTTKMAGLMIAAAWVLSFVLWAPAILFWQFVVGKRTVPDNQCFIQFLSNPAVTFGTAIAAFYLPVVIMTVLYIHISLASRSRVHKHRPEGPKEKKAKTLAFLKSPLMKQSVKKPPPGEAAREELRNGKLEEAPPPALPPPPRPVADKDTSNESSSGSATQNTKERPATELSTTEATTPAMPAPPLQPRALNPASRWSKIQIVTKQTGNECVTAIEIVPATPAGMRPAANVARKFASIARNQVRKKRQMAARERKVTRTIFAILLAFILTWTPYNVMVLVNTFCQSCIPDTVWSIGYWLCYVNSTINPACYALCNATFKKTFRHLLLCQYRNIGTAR
# UniProt P50406, sequence (whole entry, looked up): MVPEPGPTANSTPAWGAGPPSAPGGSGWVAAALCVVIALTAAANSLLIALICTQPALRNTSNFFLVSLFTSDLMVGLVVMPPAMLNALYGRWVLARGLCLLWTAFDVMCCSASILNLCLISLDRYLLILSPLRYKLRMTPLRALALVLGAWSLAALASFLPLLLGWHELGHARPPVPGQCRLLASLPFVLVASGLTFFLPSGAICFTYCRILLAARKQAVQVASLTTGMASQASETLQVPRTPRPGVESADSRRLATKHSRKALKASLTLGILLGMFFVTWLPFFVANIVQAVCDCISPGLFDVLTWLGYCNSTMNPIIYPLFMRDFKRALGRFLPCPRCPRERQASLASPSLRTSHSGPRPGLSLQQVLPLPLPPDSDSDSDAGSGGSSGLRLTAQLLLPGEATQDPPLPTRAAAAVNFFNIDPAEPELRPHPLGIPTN
# UniProt P34969, sequence (whole entry, looked up): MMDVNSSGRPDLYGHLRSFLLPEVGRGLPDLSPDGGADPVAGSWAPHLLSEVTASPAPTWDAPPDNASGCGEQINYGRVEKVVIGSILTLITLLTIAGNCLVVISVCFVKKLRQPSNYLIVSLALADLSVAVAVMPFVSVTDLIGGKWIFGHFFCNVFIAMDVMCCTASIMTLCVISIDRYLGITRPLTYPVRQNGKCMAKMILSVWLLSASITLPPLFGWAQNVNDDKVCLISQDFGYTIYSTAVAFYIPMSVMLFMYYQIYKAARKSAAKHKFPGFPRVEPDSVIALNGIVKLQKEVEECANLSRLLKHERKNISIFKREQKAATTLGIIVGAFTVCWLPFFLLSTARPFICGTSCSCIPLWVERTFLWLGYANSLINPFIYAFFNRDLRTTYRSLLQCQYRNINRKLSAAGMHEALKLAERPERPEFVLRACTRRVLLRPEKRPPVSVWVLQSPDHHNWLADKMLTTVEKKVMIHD
# UniProt Q99759, sequence (whole entry, looked up): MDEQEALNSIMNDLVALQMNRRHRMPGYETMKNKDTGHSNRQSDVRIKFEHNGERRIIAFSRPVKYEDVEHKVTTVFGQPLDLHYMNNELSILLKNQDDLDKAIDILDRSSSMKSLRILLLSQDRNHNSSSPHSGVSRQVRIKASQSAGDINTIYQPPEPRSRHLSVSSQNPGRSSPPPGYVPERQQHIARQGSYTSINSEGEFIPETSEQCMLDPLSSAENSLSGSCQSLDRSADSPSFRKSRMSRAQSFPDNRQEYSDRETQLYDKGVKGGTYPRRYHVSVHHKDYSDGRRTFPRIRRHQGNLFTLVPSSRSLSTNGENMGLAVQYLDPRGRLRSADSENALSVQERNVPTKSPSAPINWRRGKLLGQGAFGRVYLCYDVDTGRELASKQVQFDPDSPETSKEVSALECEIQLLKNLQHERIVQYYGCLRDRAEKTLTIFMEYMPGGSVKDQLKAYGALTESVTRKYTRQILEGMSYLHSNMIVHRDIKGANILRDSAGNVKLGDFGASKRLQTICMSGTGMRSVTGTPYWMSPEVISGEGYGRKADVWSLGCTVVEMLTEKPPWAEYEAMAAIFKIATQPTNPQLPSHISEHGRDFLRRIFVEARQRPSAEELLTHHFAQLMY
# UniProt P08912, sequence (whole entry, looked up): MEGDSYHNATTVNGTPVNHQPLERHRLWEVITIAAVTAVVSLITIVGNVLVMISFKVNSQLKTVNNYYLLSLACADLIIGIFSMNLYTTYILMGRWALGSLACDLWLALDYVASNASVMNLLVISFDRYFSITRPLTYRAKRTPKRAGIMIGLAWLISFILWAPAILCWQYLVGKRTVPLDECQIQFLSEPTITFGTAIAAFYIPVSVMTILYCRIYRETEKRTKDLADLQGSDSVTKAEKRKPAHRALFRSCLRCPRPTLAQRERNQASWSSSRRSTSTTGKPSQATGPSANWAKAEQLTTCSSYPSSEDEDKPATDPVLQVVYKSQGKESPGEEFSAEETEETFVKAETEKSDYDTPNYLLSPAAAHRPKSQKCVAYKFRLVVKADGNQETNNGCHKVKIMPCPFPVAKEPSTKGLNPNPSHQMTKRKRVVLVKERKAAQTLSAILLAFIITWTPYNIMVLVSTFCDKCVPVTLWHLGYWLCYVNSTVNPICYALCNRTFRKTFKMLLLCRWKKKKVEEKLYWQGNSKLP
# UniProt Q5BJF2, sequence (whole entry, looked up): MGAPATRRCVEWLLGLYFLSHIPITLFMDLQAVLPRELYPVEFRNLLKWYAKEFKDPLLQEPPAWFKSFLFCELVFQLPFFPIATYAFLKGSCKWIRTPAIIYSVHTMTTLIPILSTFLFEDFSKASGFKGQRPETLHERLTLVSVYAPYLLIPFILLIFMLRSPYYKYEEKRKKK

# Series 1 — cell line: Huh-7; concentration: 10 µM; time: 24 h
SMILES,viability [%]
CO/N=C1\CN(c2nc3c(cc2F)c(=O)c(C(=O)O)cn3C2CC2)CC1CN (centres unmarked),92
OCc1ccccc1O[C@@H]1O[C@H](CO)[C@@H](O)[C@H](O)[C@H]1O,102
NCCS,99.7
C[C@H]1c2cccc(O)c2C(=O)C2=C(O)[C@]3(O)C(=O)C(C(N)=O)=C(O)[C@@H](N(C)C)[C@@H]3[C@@H](O)[C@@H]21,91.3
C[N+](C)(C)C[C@H](O)CC(=O)[O-],100
CCN(CCCCOC(=O)c1ccc(OC)c(OC)c1)C(C)Cc1ccc(OC)cc1 (centres unmarked),98.3
C[N+]1(CCCCC[N+]2(C)CCCC2)CCCC1,102
CN(C)CCN(Cc1ccccc1)c1ccccn1,89.8
NC(N)=O,101
O=C1c2ccccc2C(=O)C1c1ccc(Br)cc1,100
Nc1ccc(S(=O)(=O)Nc2ncccn2)cc1,104

# Series 2 — SMILES: O=C(Nc1ccccc1)Nc1cccc(Oc2ccc3nccn3n2)c1; concentration: 1 µM
target,method,refers to,notes,with,baseline,remaining binding [%]
"SIK2 (Homo sapiens, UniProt Q9H0K1)",competitive binding panel,,,,vehicle,88
"EPHA7 (Homo sapiens, UniProt Q15375)",competitive binding panel,,,,vehicle,100
"PRKCI (Homo sapiens, UniProt P41743)",competitive binding panel,,,,vehicle,79
"PIP5K1C (Homo sapiens, UniProt O60331)",competitive binding panel,,,,vehicle,51
"MINK1 (Homo sapiens, UniProt Q8N4C8)",competitive binding,,MINK,,,87
"MAP3K3 (Homo sapiens, UniProt Q99759)",competitive binding panel,,,,vehicle,100
"CDK4 (Homo sapiens, UniProt P11802)",competitive binding scan,,,cyclin D1,,76
"CLK3 (Homo sapiens, UniProt P49761)",competitive binding panel,,,,vehicle,100
"JAK1 (Homo sapiens, UniProt P23458)",competitive binding panel,,JH1 catalytic domain,,vehicle,84
"KIT (Homo sapiens, UniProt P10721)",competitive binding scan,,autoinhibited form,,,61
"STK32B (Homo sapiens, UniProt Q9NY57)",competitive binding panel,YANK2,,,vehicle,71
"ABL1 (Homo sapiens, UniProt P00519, T315I)",competitive binding panel,,,,vehicle,93
"MERTK (Homo sapiens, UniProt Q12866)",competitive binding panel,,,,vehicle,96
"CSNK1D (Homo sapiens, UniProt P48730)",competitive binding panel,,,,vehicle,100
"CDC42BPB (Homo sapiens, UniProt Q9Y5S2)",competitive binding,,MRCKB,,,96
"PKMYT1 (Homo sapiens, UniProt Q99640)",competitive binding panel,,,,vehicle,100

# Series 3 — read-out: enzyme activity; action: inhibitor; concentration: 0.5 µM; baseline: control
# Target: Serine/threonine-protein kinase D2 (PRKD2, Homo sapiens, UniProt Q9BZL6)
# UniProt Q9BZL6, sequence (whole entry, looked up): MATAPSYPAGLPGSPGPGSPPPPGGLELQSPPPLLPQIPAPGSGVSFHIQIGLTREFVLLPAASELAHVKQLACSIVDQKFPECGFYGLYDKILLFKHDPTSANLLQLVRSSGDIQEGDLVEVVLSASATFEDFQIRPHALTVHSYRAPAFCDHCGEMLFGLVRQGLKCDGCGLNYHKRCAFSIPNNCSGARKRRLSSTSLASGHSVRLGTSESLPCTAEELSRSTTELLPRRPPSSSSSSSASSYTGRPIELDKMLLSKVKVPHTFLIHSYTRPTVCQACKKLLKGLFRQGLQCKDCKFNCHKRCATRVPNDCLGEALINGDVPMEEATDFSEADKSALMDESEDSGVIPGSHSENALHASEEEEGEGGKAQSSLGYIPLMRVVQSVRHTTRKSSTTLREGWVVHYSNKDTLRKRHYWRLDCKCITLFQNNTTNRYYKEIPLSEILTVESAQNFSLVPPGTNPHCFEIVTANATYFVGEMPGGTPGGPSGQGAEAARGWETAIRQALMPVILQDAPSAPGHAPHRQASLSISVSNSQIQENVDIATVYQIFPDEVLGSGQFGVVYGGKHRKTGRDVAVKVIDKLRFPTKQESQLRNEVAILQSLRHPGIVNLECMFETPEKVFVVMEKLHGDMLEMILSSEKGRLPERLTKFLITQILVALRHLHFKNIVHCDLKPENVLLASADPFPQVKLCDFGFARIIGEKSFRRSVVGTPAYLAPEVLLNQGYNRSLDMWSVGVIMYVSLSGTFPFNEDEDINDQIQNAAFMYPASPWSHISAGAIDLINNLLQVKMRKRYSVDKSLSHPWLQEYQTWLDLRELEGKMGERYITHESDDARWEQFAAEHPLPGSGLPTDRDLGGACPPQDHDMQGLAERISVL
SMILES,remaining activity [%]
Cn1nc2c3c(cccc31)C(=O)c1ccccc1-2,77
COc1cc2c(cc1OC)-c1[nH]nc(Nc3cccc(F)c3)c1C2,96.3
CCN(CC)CCNC(=O)c1c(C)[nH]c(/C=C2\C(=O)Nc3ccc(Cl)cc32)c1C,11.9
O=c1cc(-c2cccc3c2Sc2ccccc2S3)oc(N2CCOCC2)c1,105
COc1cc2ncnc(Nc3cccc(Cl)c3)c2cc1OC,92.3
CN([C@@H](Cc1ccc(OS(=O)(=O)c2cccc3cnccc23)cc1)C(=O)N1CCN(c2ccccc2)CC1)S(=O)(=O)c1cccc2cnccc12,100
Cc1cn(-c2cc(NC(=O)c3ccc(C)c(Nc4nccc(-c5cccnc5)n4)c3)cc(C(F)(F)F)c2)cn1,88.7
O=C(NC(NC(=S)Nc1ccc(F)c([N+](=O)[O-])c1)C(Cl)(Cl)Cl)C(c1ccccc1)c1ccccc1 (centres unmarked),107
O=C(Nc1cccc(Nc2nccc(Nc3cccc(C(F)(F)F)c3)n2)c1)C1CC1,101
CCOc1nc(NC(=O)Cc2cc(OC)ccc2OC)cc(N)c1C#N,91.4
O=C1c2ccccc2-c2n[nH]c3cccc1c23,33.6
N#Cc1c(NC(=O)c2cccc3ccccc23)sc2c1CCCC2,126
c1ccc(-c2cnc(Nc3ccc(OCCN4CCCC4)cc3)s2)cc1,82.2
CCN(CC)CCNC(=O)c1c(C)[nH]c(/C=C2\C(=O)Nc3ccc(F)cc32)c1C,21.1
COc1cc2ncnc(Nc3ccc(O)c(Br)c3)c2cc1OC,69.7
Ic1cccc(CSc2nnc(-c3ccncc3)o2)c1,97.1
c1ccc(-c2[nH]ncc2-c2ccnc3ccccc23)nc1,66.9
Cc1nc2cc3nc(-c4cccs4)cnc3cc2n1C,106
O=C1C(Cl)=C(N2C(=O)CCC2=O)C(=O)c2ccccc21,95.7
Nc1cccc(-c2cc3c(Oc4cccc(O)c4)ncnc3[nH]2)c1,81.7
N#C/C(=C\c1ccc(O)c(O)c1)C(=O)NCc1ccccc1,101
CCN(CC)C(=O)c1ccc(Nc2nc(OCC3CCCCC3)c3[nH]cnc3n2)cc1,67
Cc1cc2ncc(-c3ccccc3)nc2cc1C,96.5
CN(C)C[C@H]1CCn2c(c(C3=C(c4cn(C)c5ccccc45)C(=O)NC3=O)c3ccccc32)C1,97.6

# Series 4 — read-out: cell-free assay; concentration: 10 µM
# Structure (SMILES): Cc1c(C(=O)O)cc(-c2ccc(C3CCNCC3)cc2)c2ccc(-c3ccc(C(F)(F)F)cc3)cc12
target,inhibition
"CHRM2 (Homo sapiens, UniProt P08172)",19.3%
"CHRM5 (Homo sapiens, UniProt P08912)",10.1%
"HRH4 (Homo sapiens, UniProt Q9H3N8)",-4.71%
"DRD3 (Homo sapiens, UniProt P35462)",46.7%
"HTR2B (Homo sapiens, UniProt P41595)",6.6%
"HRH2 (Homo sapiens, UniProt P25021)",9%
"HRH1 (Homo sapiens, UniProt P35367)",12.6%
"ADRA2C (Homo sapiens, UniProt P18825)",46.4%
"ADRB1 (Homo sapiens, UniProt P08588)",29.2%
"ADRB2 (Homo sapiens, UniProt P07550)",27.8%
"ADRA2A (Homo sapiens, UniProt P08913)",34.8%
"HTR7 (Homo sapiens, UniProt P34969)",-3.66%
"ADRA1B (Homo sapiens, UniProt P35368)",57.4%
"ADRA2B (Homo sapiens, UniProt P18089)",79%
"DRD1 (Homo sapiens, UniProt P21728)",61.4%
"CHRM4 (Homo sapiens, UniProt P08173)",-5.54%
"ADRA1A (Homo sapiens, UniProt P35348)",25.4%
"HTR6 (Homo sapiens, UniProt P50406)",13.5%
"ADRA1D (Homo sapiens, UniProt P25100)",13.3%
"TMEM97 (Homo sapiens, UniProt Q5BJF2)",92.7%

# Repeated from above (series 3):
SMILES,remaining activity [%]
CCN(CC)CCNC(=O)c1c(C)[nH]c(/C=C2\C(=O)Nc3ccc(Cl)cc32)c1C,11.9
COc1cc2c(cc1OC)-c1[nH]nc(Nc3cccc(F)c3)c1C2,96.3
O=C(Nc1cccc(Nc2nccc(Nc3cccc(C(F)(F)F)c3)n2)c1)C1CC1,101
c1ccc(-c2[nH]ncc2-c2ccnc3ccccc23)nc1,66.9
Cc1cc2ncc(-c3ccccc3)nc2cc1C,96.5
Nc1cccc(-c2cc3c(Oc4cccc(O)c4)ncnc3[nH]2)c1,81.7
